Measurements from different studies.
Each numbered part is a random draw from the data of one study; scales do not carry over between parts.

Block 1
Target: RING finger protein unkempt homolog, zinc fingers 1-6, GST-SBP tag (UNK, Homo sapiens, UniProt Q9C0B0, residues 30-357)
Chain of UniProt Q9C0B0 (30-357, looked up): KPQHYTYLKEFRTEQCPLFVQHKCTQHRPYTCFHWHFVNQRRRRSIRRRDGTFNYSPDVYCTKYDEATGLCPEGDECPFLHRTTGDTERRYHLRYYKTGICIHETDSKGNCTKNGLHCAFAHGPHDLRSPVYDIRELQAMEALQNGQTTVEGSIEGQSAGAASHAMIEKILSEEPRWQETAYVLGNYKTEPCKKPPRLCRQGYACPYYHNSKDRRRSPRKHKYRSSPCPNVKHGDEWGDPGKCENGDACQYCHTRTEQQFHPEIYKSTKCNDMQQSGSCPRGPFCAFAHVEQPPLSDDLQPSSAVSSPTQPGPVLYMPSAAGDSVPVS
Technique: RNA Bind-n-Seq
Molecule type: RNA
Sample: in vitro
Concentration: not given
Notes: RNA with constant flanks, human-mouse chimeric sites, ends assumed
Reference: input RNA pool
Direction: higher = stronger binding
All sequences stand within: GGGAGUUCUACAGUCCGACGAUC … CAACAGAGGAUUGAGCAUCA
Sequence	bound/input enrichment [ratio]
AACAGAUUGUCUUUAAGCAUUCCAAGCGAGAAUGCUGGGGUGAUCAUUGUUGCCCAUAUAUAGUAAUACUGAGCUUUAAUGCUGUUCCAUGUUACAUCUUUCCUUCACUCCAGAAUUGUU	0.644
CUGGCACUCUAUCAGAUAUAUUAAUUUUUUAAUGUAGAUGUAAUUUUAAAAAUGAAUGGCUAGUUUACACGUUUAACUAGGGUUUUACUAUAUAUGUGUGUGUAUAUAUAUAUAUAUAUA	5.87
AAAGUGAUGACUAUGUUUGUCCAACGACAGGUAUUUUCGGAGAGCAAAGAUGAGAUUGCUUUAGUCCUCUAUGGCACAGAUGGCACUGAUAAUGCCCUUUCUGGUGGGGACCAGUAUCAG	0.376
UUACCCGAGAACGAGGAUGAGCUGGAGAGCACCAACAGGCGCUACACCAAGAGGGACUGUAGCACUUUCCUCAGAACUAGUGAGACGGGCAUCGUGGACCAGGUCAUGGUAACUCUCAAC	0.201
UACUGCUGCUUUCAACUAUCACUGAGGAGGCAUCUCUACUGUUCUGUGAGCAUCAGGACUGUAGCGCUGUGUCACCACAUGAGAGUUCAGAAGCAGCCUUUCUGUGGAGGGUGGGAAUGA	0.0913
AAAGUGGACUAUGGCGAGUACAUGGAUAAAAACAAUGUGAGGCGGCAAGCAACAACAAUCAUAGCUGAUAACAUUAUAUUUCUGAGUGACCAGACGAAAGAAAAGGCAUAGAACGGAUGA	2.02
CCUGCUCAGAUCACCAUGAAAGUAAUCCAAGGCUUGUAUAGUGGGGUCACCACAGUGGAACUGGACACCCUGGCUGCUGAGACAGCCGCAACCUUGACCACGAAGCACCCUGACUAUGCC	0.157
GCGAACAGGACUACAGAAAUGCUGGUAAUUUCAGUCACUUGCUGAUGACUUCUGAUGUCCCAGCAAAUGUUGGCAUUGUUGACUGCUGAGAAGAUACUUCUGAGGACCCACGUCUAAGGU	0.078
CUGGCACUCUAUCAGAUAUAUUAAUUUUUUAAUGUAGAUGUAAUUUUAAAAAUGAAUGGCUACUUUACGUGAUAGAUUAGGGUUUUACUACAUAUGUGUACAUAUGUAUAUAUAUAUAUA	8.92
ACUCUUGACUCUUUCCAUUCUCGUCCCUUCCCUCUUGAUAUUCAAGGCCAUGAAUCCCAAAAUAACAGUCUUAGUGGCUAGCACCCAAACAGAGGUGGAAUAAAUCCACCCCAGUGUCUC	0.524
CGCAGAAGGUUAAAGGGUGAGAGUGGGGUGGAAGACUGUGUCAUGGCUCUGGAGACACUGUUCAGUGUCCUGCUUUCUCUGUGCAGACUGAUGGCCCCUUACACGCCCUUUCUGACUGAG	0.0482

Block 2
Target: RNA binding protein fox-1 homolog 2, RRM domain, GST-SBP tag (RBFOX2, Homo sapiens, UniProt O43251-10, residues 100-194)
Technique: RNA Bind-n-Seq
Molecule type: RNA
Sample: in vitro
Concentration: 365 nM
Notes: natural RNA segment, single round, ends assumed
Reference: no-protein control
Direction: higher = stronger binding
All sequences stand within: GGGAGUUCUACAGUCCGACGAUC … UGGAAUUCUCGGGUGCCAA
Residues (chain): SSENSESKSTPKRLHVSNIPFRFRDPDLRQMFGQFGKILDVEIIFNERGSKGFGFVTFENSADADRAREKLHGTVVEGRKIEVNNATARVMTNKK
Sequence	RBNS enrichment (R)
AUCUGCACAAUUCAGUUUCAGCUCUGGAUUACUUCAGUUGACCUUUGUGAAGGUUUUUAUCUGUGUAGAAUGGGUGUUUGACUUGUUUUAGCCUAUUAAAUUUUUAUUUU	0.85
CCCAUUCACUGGGGUCAGGUGGCAGUUGACAUCUUGGUUAUAAGUAUGCAUGCAGGUAACAAGAGUGAAAGCAGAGCUGACAUUUGCCAGGCUUUCCUGGAGCAGGCCAG	23.4
ACAUCACUCCAAGGCUCAGCUGGGCGCUGCUCAUCCCCAACUCUCAUAGUGACAUCACCUGUGGAUAUUUAAUGAGUGUGGGAUGCGGGGUCUGCGGUAGAGAUGGUUUC	0.341
GUAGAAUAUACUAAUAAUCUGUGCCAACUCUACCUUCCCACUUUUACCUCUGACAUCAUUCUUUUUUUCUGAAAGGGGUAAUAAUUCUAGUUUUGAUAGACUCUGAGGAU	0.376
AGAAGUGUUUCAAACAUAUCUGAAUGUAUAAAAUAAGAGUAAAUGCCCUACAUGGUGUGAUGCUGCAUUAUAUAUAAAACUGUGUGCAUAUAUUAAAUUUUGUCUCUUGA	0.651
CUUGAAUGUUAAACAUGGAGUGUGACUGGGACAGCCAUGAGUCAGAAUAUAAAUGAAUGCUUAAACAUUUGAAUACAGAUUCCUCCGGAUUGUUGAAUUCACUCAACUAG	0.808
CAUUGGAAGCCAGACUUGAUUCUGAGACAUGUUGAAUUGCUUUUUCCUCUCCCAUCAAAUGGCAUUAACACAAUUGGUAAAGAUGGUCCCUCAAAUGACUCCCCCCCCCC	0.592
ACUUUAUGACUUAGUUCUUCAUUUCCUGGGGCCUUAUCUUCACUGUGAACAAUAAAGUUUGAACACAGCGGGGUGUCUUUACUGCAGUGGGUGGGGGCUCAGAGGCACUA	0.488
UGAGGGUGGCGUCUUUAGAGACAGGCACAUGGGCAGCCCUGUUCCCUUCGCCUCUACUGCGAGGCCUGGGGAGAUGUUGUUUUCAUGCUGCUUCCACCAUCACACUGGGG	0.255

Block 3
Target: Interferon regulatory factor 3, full length, phosphomimetic (IRF3, Homo sapiens, UniProt Q14653, residues 1-427, S386D/S396D/S398D/S402D/T404D/S405D)
Chain of UniProt Q14653 (whole entry, unmodified, looked up): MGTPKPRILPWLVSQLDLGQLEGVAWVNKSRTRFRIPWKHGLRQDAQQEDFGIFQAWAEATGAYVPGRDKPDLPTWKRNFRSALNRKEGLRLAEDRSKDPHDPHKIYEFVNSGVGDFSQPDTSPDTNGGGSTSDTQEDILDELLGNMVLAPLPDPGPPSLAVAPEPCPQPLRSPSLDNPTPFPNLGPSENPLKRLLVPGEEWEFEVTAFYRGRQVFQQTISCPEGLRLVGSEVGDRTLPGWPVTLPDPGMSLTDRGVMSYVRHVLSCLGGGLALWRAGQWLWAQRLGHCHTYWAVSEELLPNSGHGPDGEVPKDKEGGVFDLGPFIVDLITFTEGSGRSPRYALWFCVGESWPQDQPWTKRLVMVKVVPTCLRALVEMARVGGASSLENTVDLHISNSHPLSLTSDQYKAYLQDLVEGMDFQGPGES
Technique: protein-binding microarray
Molecule type: double-stranded DNA, one strand shown
Sample: in vitro
Concentration: 2540 nM top
Notes: 60-bp whole probe
Added: salmon DNA 0.4 mg/ml
Reference: random background probes
Direction: higher = stronger binding
All sequences stand within: GCCTAGCAC … GTCTTGATTCGCTTGACGCTGCTG
Sequence	fitted relative affinity
GACGGTATCTGTCTCGGGACGTGCTAG	2.46 z-score
GACGGACTGGGTTTTCGGGACGTGCTA	-0.315 z-score
GACGGTTTCCTTAGCCTGACGTGCTAG	4.65 z-score
TTAGGTATGGGGACTGGGTTAGTGCTA	-0.888 z-score
TTAGGACTGGAATATCGGTTAGTGCTA	-0.243 z-score
GAAGGTATCGGGTATCGGGACGTGCTA	1.55 z-score
GGCCTTGGAGGGGGTGGGTGGTGCTAG	-0.714 z-score
AACGGTTTCGACACTGGGGACGTGCTA	2.85 z-score
GACGGACTGGGACCGGGGACGTGCTAG	-0.633 z-score
TCAACTTTGGAGATGACACTGTGCTAG	-0.188 z-score
TTAGATATCGGGTATCGAGTAGTGCTA	0.0111 z-score
TTAGCACTGGGACTGGGTTAGTGCTAG	-0.861 z-score
GACGATTTCGGGTATCGGGACGTGCTA	2.13 z-score
TTAGGACTGCAACTGCTTTAGTGCTAG	-0.577 z-score
GACGATATAGGGTATCGAGACGTGCTA	0.0101 z-score
ATCTTAATAAGGTTTCCAATCGTGCTA	3.12 z-score
GACGAACTGAATTTCGAGACGTGCTAG	0.504 z-score
GACGGACTGCTTCTCCTGGCGTGCTAG	-0.273 z-score
GACGATTTCAGTTCCGAGACGTGCTAG	3.13 z-score
AAGGTTATCCATCTCAAGTAGTGCTAG	2.13 z-score
TTAGGTTTCGGACTGTGTTAGTGCTAG	4.58 z-score

Block 4
Target: Prothrombin, mature alpha-thrombin (F2, Homo sapiens, UniProt P00734)
Technique: aptamer microarray, sandwich
Molecule type: DNA with 2'F-ANA
Sample: in vitro
Concentration: 200 nM
Notes: whole 15-mer aptamer, many near background
Added: Cy3 exosite-II aptamer, 400 nM
Direction: higher = stronger binding
Sequence: GGTTGGTGTGGTTGG
Modification	mean fluorescence intensity [a.u.]
2'F-ANA at 3 4 6 7 12 15	915
2'F-ANA at 1 3 5 6 15	61
2'F-ANA at 1 5 6 7 8 10 11 13 14	72.6
2'F-ANA at 5 6 7 10 11 12 14	48.3
2'F-ANA at 2 7 8 10 11 14 15	77
2'F-ANA at 3 4 5 10 11 13	50.6
2'F-ANA at 1 3 4 6 8 12 13 15	267
2'F-ANA at 2 3 4 6 8 9 10 11 13 14 15	137
2'F-ANA at 2 3 4 12 14 15	361
2'F-ANA at 2 6 8 9 11 12 15	499
2'F-ANA at 3 5 6 7 8 10 14 15	76.3
2'F-ANA at 1 3 5 6 7 8 9 10 13 14	44
2'F-ANA at 2 4 8 10 15	111
2'F-ANA at 2 3 5 6 7 8 11 12 13 15	143
2'F-ANA at 2 6 7 8 9 12 15	674
2'F-ANA at 2 3 6 7 8 9 11	662
2'F-ANA at 2 3 4 8 9 11 13 14 15	224
2'F-ANA at 2 7 11 13 14	171
2'F-ANA at 1 4 6 9 13	68.7
2'F-ANA at 5 6 8 11 13 14 15	56.4
2'F-ANA at 2 3 9 10 14 15	291
2'F-ANA at 1 4 7 8 11 12 13 15	198
2'F-ANA at 1 2 4 7 10 12 13 14 15	58.7
2'F-ANA at 1 2 3 4 6 8 10 14	52.4
2'F-ANA at 1 2 6 7 12 13 15	225

A few entries again (block 4):
Modification	mean fluorescence intensity [a.u.]
2'F-ANA at 2 3 4 12 14 15	361
2'F-ANA at 2 6 8 9 11 12 15	499
2'F-ANA at 3 5 6 7 8 10 14 15	76.3
2'F-ANA at 1 3 5 6 7 8 9 10 13 14	44
2'F-ANA at 2 4 8 10 15	111
2'F-ANA at 2 3 5 6 7 8 11 12 13 15	143
2'F-ANA at 2 6 7 8 9 12 15	674
2'F-ANA at 2 3 6 7 8 9 11	662
